Results from different studies.
Parts stem from different laboratories: compare values within a part only.
Sequence of UniProt Q8WU08 (whole entry, looked up): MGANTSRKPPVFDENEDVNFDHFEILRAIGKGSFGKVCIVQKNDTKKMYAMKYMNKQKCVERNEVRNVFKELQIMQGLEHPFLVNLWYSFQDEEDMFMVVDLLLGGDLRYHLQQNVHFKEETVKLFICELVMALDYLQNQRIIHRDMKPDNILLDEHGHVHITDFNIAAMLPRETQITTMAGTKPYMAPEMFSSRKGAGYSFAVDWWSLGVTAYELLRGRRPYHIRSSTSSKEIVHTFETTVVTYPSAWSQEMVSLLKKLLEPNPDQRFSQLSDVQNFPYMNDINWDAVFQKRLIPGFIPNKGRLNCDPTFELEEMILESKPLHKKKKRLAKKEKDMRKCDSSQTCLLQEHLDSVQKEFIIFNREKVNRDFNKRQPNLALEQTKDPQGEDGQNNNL
Sequence of UniProt Q9Y616 (whole entry, looked up): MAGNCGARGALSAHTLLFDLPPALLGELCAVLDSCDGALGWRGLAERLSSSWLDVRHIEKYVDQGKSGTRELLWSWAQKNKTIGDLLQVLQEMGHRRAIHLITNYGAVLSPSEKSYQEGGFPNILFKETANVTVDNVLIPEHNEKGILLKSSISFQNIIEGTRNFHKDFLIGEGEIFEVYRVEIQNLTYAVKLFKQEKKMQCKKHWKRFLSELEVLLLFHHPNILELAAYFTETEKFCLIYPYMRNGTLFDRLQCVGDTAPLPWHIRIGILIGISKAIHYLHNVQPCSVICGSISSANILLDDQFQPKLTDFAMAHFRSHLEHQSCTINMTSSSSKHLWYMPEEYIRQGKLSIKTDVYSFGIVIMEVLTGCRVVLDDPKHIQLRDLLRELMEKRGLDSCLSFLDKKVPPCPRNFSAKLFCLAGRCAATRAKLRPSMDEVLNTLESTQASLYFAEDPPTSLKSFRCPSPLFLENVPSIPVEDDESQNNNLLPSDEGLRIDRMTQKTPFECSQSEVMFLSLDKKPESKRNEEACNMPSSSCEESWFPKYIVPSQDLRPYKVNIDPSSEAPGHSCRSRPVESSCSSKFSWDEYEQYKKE
Sequence of UniProt Q16659 (whole entry, looked up): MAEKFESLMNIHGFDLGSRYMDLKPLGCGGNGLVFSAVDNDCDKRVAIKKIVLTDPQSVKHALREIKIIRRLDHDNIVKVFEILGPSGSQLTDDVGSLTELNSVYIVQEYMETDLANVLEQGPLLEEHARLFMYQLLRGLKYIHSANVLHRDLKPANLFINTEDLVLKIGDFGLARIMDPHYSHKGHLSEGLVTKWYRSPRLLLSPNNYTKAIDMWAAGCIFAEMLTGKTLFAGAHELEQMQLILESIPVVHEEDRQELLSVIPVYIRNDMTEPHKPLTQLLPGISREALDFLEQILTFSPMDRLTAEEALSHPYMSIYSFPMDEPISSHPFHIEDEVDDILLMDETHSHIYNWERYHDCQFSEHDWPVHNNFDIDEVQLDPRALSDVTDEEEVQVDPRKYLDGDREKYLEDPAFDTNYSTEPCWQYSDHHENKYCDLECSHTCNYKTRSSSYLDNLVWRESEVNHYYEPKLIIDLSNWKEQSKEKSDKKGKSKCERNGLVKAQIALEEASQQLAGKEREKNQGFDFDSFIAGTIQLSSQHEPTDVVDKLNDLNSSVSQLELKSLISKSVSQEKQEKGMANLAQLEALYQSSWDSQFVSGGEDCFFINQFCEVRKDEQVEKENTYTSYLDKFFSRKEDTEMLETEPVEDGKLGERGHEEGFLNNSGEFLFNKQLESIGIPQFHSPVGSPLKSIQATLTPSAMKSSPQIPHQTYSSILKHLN
Sequence of UniProt P35626 (whole entry, looked up): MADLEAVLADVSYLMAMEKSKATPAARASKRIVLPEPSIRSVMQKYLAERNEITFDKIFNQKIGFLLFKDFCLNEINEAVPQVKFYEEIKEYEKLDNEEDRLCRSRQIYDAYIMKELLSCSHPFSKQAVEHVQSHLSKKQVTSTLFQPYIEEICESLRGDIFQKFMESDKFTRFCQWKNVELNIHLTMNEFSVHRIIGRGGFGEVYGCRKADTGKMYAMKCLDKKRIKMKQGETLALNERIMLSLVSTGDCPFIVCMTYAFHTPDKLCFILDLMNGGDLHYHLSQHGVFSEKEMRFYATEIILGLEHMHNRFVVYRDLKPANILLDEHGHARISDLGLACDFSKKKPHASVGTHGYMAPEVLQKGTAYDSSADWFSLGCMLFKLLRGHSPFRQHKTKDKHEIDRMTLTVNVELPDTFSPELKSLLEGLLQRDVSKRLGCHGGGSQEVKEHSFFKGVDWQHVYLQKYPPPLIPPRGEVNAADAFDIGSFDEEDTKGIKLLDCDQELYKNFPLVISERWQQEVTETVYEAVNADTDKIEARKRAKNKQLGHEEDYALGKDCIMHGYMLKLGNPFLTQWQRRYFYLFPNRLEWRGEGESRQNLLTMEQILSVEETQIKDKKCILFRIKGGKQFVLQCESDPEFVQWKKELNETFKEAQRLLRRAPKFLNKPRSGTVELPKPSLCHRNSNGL
Sequence of UniProt P36894 (whole entry, looked up): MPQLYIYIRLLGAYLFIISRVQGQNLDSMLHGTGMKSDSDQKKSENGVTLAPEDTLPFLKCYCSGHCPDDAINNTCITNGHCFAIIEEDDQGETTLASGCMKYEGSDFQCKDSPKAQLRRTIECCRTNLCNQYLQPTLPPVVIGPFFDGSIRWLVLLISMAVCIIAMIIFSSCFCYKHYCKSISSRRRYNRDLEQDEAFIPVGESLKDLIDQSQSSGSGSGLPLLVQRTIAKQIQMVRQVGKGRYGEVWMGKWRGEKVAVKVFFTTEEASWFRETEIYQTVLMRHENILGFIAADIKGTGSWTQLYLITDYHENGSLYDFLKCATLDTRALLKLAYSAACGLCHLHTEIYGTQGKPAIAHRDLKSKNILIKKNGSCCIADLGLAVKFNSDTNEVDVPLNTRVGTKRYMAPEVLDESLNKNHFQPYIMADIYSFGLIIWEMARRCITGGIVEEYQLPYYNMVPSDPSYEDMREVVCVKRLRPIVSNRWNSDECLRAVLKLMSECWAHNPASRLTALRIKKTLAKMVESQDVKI
Sequence of UniProt Q9H3Y6 (whole entry, looked up): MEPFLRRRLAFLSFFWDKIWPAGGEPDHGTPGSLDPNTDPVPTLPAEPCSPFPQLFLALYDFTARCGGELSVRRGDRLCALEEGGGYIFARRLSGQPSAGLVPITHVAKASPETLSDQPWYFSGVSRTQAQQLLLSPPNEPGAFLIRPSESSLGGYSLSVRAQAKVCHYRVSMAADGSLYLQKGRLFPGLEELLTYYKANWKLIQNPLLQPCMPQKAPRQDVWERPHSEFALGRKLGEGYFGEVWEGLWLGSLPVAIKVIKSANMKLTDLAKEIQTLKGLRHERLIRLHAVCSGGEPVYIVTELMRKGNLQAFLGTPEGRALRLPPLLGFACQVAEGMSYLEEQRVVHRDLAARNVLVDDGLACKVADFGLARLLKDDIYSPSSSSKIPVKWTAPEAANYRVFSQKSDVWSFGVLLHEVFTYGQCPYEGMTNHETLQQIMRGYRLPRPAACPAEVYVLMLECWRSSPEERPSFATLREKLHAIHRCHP

Block 1
Target: Interferon regulatory factor 5, full length, phosphomimetic (IRF5, Homo sapiens, UniProt Q13568-2, residues 1-514, S451D/S453D/S456D/S462D)
Technique: protein-binding microarray
Form: double-stranded DNA, one strand shown
Sample: in vitro
Tested at: 940 nM top
Notes: 60-bp whole probe
Added: salmon DNA 0.4 mg/ml
Baseline: random background probes
Reading: higher = stronger binding
Quantity: fitted relative affinity
Shared flanks, not repeated: GCCTAGCAC … GTCTTGATTCGCTTGACGCTGCTG
TTAGAACTGCTTATCCTTTAGTGCTAG: 0.43 z-score
TTAGGTTTCGGTCTCGGTAAGTGCTAG: 15.2 z-score
GACGAATTCAGTTCCGAGACGTGCTAG: 0.225 z-score
GTAGGACTGGACACTGGGTTAGTGCTA: -0.124 z-score
GTCGTCACTGCCATAATGCGGTGCTAG: -0.244 z-score
GACTGTTTCGGTTTCGGGACGTGCTAG: 8.87 z-score
TTAGGTTTCGGTTCCGGTTTGTGCTAG: 15.2 z-score
TCATTTTTTTTTTTTTGACTGTGCTAG: 1.06 z-score

Block 2
Structure (SMILES): C[C@@H]1CN(c2cc(-c3n[nH]c4ccc(OC5(C)CC5)cc34)ncn2)C[C@H](C)O1
Read-out: cell-free assay
Technique: competition with immobilised ligand
Tested at: 0.1 µM
Quantity: remaining binding
Mitogen-activated protein kinase 6 (MAPK6, Homo sapiens, UniProt Q16659): 91%
Serine/threonine-protein kinase 32A (STK32A, Homo sapiens, UniProt Q8WU08): 92%
Tyrosine-protein kinase Srms (SRMS, Homo sapiens, UniProt Q9H3Y6): 59%
Tyrosine-protein kinase ABL1, non-phosphorylated (ABL1, Homo sapiens, UniProt P00519, T315I): 72%
Aurora kinase C (AURKC, Homo sapiens, UniProt Q9UQB9): 100%
Bone morphogenetic protein receptor type-1A (BMPR1A, Homo sapiens, UniProt P36894): 100%
RAC-alpha serine/threonine-protein kinase (AKT1, Homo sapiens, UniProt P31749): 87%
G protein-coupled receptor kinase 3 (GRK3, Homo sapiens, UniProt P35626): 91%
Calcium/calmodulin-dependent protein kinase kinase 2 (CAMKK2, Homo sapiens, UniProt Q96RR4): 100%
Mast/stem cell growth factor receptor Kit (KIT, Homo sapiens, UniProt P10721, L576P): 100%
Focal adhesion kinase 1 (PTK2, Homo sapiens, UniProt Q05397): 81%
Interleukin-1 receptor-associated kinase 3 (IRAK3, Homo sapiens, UniProt Q9Y616): 94%

Block 3
Target: Angiopoietin-1 receptor (TEK, Homo sapiens, UniProt Q02763)
Sequence of UniProt Q02763 (whole entry, looked up): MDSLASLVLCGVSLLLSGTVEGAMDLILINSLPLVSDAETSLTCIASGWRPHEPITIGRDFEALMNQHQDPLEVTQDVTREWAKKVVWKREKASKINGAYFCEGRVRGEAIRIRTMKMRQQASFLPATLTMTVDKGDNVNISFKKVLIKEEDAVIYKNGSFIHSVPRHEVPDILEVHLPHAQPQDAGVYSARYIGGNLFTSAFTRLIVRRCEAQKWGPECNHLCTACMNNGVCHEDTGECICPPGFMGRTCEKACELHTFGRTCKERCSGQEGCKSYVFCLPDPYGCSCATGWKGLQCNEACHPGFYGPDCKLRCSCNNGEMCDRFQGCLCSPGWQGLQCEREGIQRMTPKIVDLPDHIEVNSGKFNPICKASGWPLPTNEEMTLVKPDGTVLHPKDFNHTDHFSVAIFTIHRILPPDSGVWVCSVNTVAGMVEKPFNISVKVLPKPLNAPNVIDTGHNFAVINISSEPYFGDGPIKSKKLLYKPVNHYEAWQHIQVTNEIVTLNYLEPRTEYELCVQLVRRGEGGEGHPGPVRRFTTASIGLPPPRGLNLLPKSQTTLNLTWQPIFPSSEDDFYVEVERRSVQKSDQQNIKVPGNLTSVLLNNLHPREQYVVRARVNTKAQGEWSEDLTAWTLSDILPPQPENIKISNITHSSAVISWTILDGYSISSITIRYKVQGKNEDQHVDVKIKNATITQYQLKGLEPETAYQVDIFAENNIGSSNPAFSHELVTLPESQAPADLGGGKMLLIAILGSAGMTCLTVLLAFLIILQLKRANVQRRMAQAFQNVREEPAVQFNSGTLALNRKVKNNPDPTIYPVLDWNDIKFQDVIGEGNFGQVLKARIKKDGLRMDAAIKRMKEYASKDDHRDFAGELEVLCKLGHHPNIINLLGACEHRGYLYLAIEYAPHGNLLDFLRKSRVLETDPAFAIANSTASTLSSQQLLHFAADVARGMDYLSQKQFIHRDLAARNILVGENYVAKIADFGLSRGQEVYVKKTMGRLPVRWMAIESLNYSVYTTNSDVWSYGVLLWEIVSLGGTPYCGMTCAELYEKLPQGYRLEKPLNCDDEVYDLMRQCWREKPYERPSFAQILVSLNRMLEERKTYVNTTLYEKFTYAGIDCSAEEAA
Read-out: enzyme activity
Mode: inhibitor
Tested at: 0.5 µM
Baseline: control
Quantity: remaining activity
Cn1c2ccccc2c2c3c(c4c5ccccc5n(CCC#N)c4c21)CNC3=O: 104%
COc1ccc(OC)c2c(=S)c3ccccc3[nH]c12: 100%
C#Cc1cccc(Nc2ncnc3cc(OCCOC)c(OCCOC)cc23)c1: 94%
O=C(Nc1cccc(Nc2cc(Nc3cccc(C(F)(F)F)c3)ncn2)c1)C1CC1: 101%
O=C1NC(=O)C(c2cn(CCCn3ccnc3)c3ccccc23)=C1Nc1ccccc1: 92.3%
CN(C)c1ccc(C=C2C(=O)Nc3ccccc32)cc1: 102%
CO[C@H]1C[C@@H]2CC[C@@H](C)[C@@](O)(O2)C(=O)C(=O)N2CCCC[C@H]2C(=O)O[C@H]([C@H](C)C[C@@H]2CC[C@@H](O)[C@H](OC)C2)CC(=O)[C@H](C)/C=C(\C)[C@@H](O)[C@@H](OC)C(=O)[C@H](C)C[C@H](C)/C=C/C=C/C=C/1C: 97.6%
Nc1[nH]nc2nc3ccccc3nc12: 97%
NCCNc1ncc(C(N)=O)c(Nc2cccc(C(F)(F)F)c2)n1: 97.7%
OCC(O)CCON=C1C(c2c(O)[nH]c3ccccc23)=Nc2ccccc21 (centres unmarked): 101%
COc1ccc(C(=O)Nc2sc3c(c2C(N)=O)CCCC3)cc1OC: 96.4%
O=c1c2ccccc2[nH]c(=S)n1CCN1CCC(=C(c2ccc(F)cc2)c2ccc(F)cc2)CC1: 96.1%
O=S(=O)(c1cccc2cnccc12)N1CCCNCC1: 98.4%
Cn1sc(=O)n(Cc2ccccc2)c1=O: 90.9%
O=C(O)c1ccc2c3c1cccc3c(=O)n1c3ccccc3nc21: 102%
COc1ccc(CNC(=O)Nc2ncc([N+](=O)[O-])s2)cc1: 94%

Block 4
Target: Ras GTPase-activating protein-binding protein 1, RRM domain (G3BP1, Homo sapiens, UniProt Q13283)
Sequence of UniProt Q13283 (whole entry, looked up): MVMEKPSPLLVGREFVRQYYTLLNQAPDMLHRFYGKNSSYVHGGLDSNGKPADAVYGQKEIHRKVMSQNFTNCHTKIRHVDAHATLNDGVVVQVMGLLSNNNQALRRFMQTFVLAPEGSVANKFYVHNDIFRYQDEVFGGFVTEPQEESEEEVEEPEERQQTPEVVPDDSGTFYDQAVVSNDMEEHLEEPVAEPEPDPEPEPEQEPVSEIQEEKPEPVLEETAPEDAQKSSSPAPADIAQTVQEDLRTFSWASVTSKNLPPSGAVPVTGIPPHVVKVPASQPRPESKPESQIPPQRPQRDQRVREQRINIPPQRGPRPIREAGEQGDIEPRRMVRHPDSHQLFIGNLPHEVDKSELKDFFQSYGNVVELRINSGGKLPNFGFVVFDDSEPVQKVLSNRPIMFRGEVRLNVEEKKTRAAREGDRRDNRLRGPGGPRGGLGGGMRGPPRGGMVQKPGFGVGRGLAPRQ
Technique: RNA Bind-n-Seq
Form: RNA
Sample: in vitro
Tested at: 1 µM
Notes: whole 134-nt RNA, ends assumed
Added: 150 mM KCl
Baseline: input library
Reading: higher = stronger binding
Quantity: log2 enrichment
Shared flanks, not repeated: GGGAGUUCUACAGUCCGACGAUC … UGGAAUUCUCGGGUGUCAAGG
CCUGUGCUACACAUCGUAUGUACCGAAUCGGGGUUUUUGGGGAAAAAGGGGUUUUUGGGGAAAGUAUUAUGUUACGCCGUUCGGAUCUGC: 1.1
UCCUGUGCUACACAUCGUAUGUACCGAAUCAAAUUUUUUUAAACCCCCAAACCCCCAAAAAAGUAUUAUGUUACGCCGUUCGGAUCUGCA: -1.17
UAACUUUAGAGGAGGAUCUGAUGGAUAUGGCAGUGGACGUGGAUUUGGGGAUGGCUUUAAUGGGUAUGGAGGAGGACCUGGAGGUGGCAA: -0.676
CAAGUCCUGUGCUACACAUCGUAUGUACCGAAUCGGGUUUUGGUUUUGGUUUUGGAAAGUAUUAUGUUACGCCGUUCGGAUCUGCACUUC: -0.348
CUCAAGUCCUGUGCUACACAUCGUAUGUACCGAAUCGGGAAGGGAAGGAAGGGGAAAGUAUUAUGUUACGCCGUUCGGAUCUGCACUUCC: 0.373
GUCCUGUGCUACACAUCGUAUGUACCGAAUCGGAAAAAAGGAAAAAAGGGAAAAAAGGAAAGUAUUAUGUUACGCCGUUCGGAUCUGCAC: 0.0908
UGUGCUACACAUCGUAUGUACCGAAUCGGGGCCCCCCCGGGGCCCCCCCGGGGCCCCCCCGGGAAAGUAUUAUGUUACGCCGUUCGGAUC: -0.709
CACAGACAACACGCACCCACACAGACACAGAGGGAAGGGGUUGGGAUGGGGACAGGGUGCACACCAGGGCGGGGUAGGACCCCAGCCCCU: 0.145

For quick reference, copied from above (block 1):
GTAGGACTGGACACTGGGTTAGTGCTA: -0.124 z-score
GTCGTCACTGCCATAATGCGGTGCTAG: -0.244 z-score
GACTGTTTCGGTTTCGGGACGTGCTAG: 8.87 z-score
TTAGGTTTCGGTTCCGGTTTGTGCTAG: 15.2 z-score
TCATTTTTTTTTTTTTGACTGTGCTAG: 1.06 z-score
